Published values from different studies.
Parts stem from different laboratories: compare values within a part only.

Sample 1
Target: Interferon regulatory factor 7, full length, phosphomimetic (IRF7, Homo sapiens, UniProt Q92985, residues 1-503, S101K/S471D/S472D/S475D/S476D/S477D/S483D/S484D/S487D)
Technique: protein-binding microarray
Form: double-stranded DNA, one strand shown
Sample: in vitro
Concentration: 250 nM
Notes: 60-bp whole probe
Together with: salmon DNA 0.4 mg/ml
Reference: random background probes
Direction: higher = stronger binding
Constant ends, left off below: GCCTAGCAC … GTCTTGATTCGCTTGACGCTGCTG
Target sequence (chain): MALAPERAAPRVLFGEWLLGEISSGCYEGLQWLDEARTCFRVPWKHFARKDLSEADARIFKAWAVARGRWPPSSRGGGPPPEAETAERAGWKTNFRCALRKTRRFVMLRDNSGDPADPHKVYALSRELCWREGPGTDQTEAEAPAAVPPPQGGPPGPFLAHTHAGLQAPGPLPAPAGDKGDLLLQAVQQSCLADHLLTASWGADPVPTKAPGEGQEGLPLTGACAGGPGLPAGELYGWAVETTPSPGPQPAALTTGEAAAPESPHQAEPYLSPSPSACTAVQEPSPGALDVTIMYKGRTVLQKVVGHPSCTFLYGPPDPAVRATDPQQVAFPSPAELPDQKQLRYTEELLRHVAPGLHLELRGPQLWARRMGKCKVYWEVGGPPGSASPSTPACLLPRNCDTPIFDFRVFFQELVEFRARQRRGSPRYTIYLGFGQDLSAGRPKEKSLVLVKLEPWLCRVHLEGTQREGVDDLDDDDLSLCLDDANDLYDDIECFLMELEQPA
With `TAAGATCTCAGACTGGATTAGTGCTAG` the log fluorescence was -0.0805 z-score.
`GACGGTTTCGTTTCCGGGACGTGCTAG` gave a log fluorescence of 12.2 z-score.
`GTAGATTTCGGGTTTCGATTAGTGCTA` gave a log fluorescence of 7.5 z-score.
`TCATATTTAGAACTTCTCACTGTGCTA` gave a log fluorescence of 0.653 z-score.
The log fluorescence of `TTCGGTTTCGGTTTCGGTTAGTGCTAG` is reported as 15 z-score.
For `AATTAGGTTTCACTTTCCAAAGTGCTA`, the log fluorescence was 9.3 z-score.
`GACGATTTCAGACTGGACACGTGCTAG` has a log fluorescence of 0.194 z-score.
With `GACAGTATCGACTATCGGGACGTGCTA` the log fluorescence was -0.243 z-score.
For `TTAGGTATCGTGACTGGGTTAGTGCTA`, the log fluorescence was -0.437 z-score.
The log fluorescence of `TTACGTATCGGTATCGGTTAGTGCTAG` is reported as 1.82 z-score.
For `TTTACTTTCTGAATGCCCTTGTGCTAG`, the log fluorescence was 1.32 z-score.
The log fluorescence of `TTAGGTATGGACTTTCGGTTAGTGCTA` is reported as 0.796 z-score.
With `TTAGAACTGAGTCTCGATGAGTGCTAG` the log fluorescence was -0.286 z-score.
`TCATTTCTTTAACTCATACTGTGCTAG` has a log fluorescence of 1.75 z-score.
`GACGGACTGGAGTTTCGGGACGTGCTA` gave a log fluorescence of 1.34 z-score.
`TCTGTTTTCTCCATGGAAGAGTGCTAG` gave a log fluorescence of 2.14 z-score.
`TTAGACCTCAGTCTCGATTAGTGCTAG` gave a log fluorescence of 1.66 z-score.
The log fluorescence of `TCACATTTGGAAAATGTAACTGTGCTA` is reported as 0.956 z-score.
The log fluorescence of `TTAGGTCACCTTCTCCTTTAGTGCTAG` is reported as -0.0641 z-score.

Sample 2
Target: RING finger protein unkempt homolog, zinc fingers 1-6, GST-SBP tag (UNK, Homo sapiens, UniProt Q9C0B0, residues 30-357)
Technique: RNA Bind-n-Seq
Form: RNA
Sample: in vitro
Concentration: not given
Notes: RNA with constant flanks, human and mouse sites, ends assumed
Reference: input RNA pool
Direction: higher = stronger binding
Constant ends, left off below: GGGAGUUCUACAGUCCGACGAUC … CAACAGAGGAUUGAGCAUCA
Target sequence (chain): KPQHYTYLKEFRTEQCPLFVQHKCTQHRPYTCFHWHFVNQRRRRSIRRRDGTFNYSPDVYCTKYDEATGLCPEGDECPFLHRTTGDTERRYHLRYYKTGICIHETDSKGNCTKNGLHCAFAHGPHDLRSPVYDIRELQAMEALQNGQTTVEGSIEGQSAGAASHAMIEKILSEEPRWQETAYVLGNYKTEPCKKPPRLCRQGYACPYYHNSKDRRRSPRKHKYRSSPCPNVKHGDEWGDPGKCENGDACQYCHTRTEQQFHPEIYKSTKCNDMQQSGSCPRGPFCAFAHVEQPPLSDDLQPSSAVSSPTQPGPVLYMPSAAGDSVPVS
With `GUAUCAGUGUGCAAAGAGCUUCCCUAUGUUAAUACGUUACGGCAAACCAUAUGGAGUAAGAGGAGUCAUGUUUUCUCCCCUAGCUCUGCCAGUAACUAGCCUUGUCACCUUGGUCAAAAC` the bound/input enrichment was 0.195 ratio.
`CCGGUGGAGGGCAGCGAGAUAGGCUCAGAGACGCUGUCCGUGUCCUCCUCACGCGACUCCACCCUGCGCAGGAAGGGCAACAUCAUCUUGAUCCCGGAAAGAAGCAACAGCCCUGAAAAC` has a bound/input enrichment of 0.0806 ratio.
With `AAAUUUAACUAAUUUCCAUUUGUUAAAAAGUAGUGAUUUAUUGAGAAUUAUGCAGUCAUUUUUUAAACCCAAAAGUUAUUUAAAGGUGAAUUUAUACUCAAUAACUUCUGUGUAAUACUG` the bound/input enrichment was 2.18 ratio.
For `UGCAGUCAUCCAGUCCUUGGGCAAAAUACAGAGAAUGUGUCACAACCAGAAAGAGAAGAUACUCAAGACAACUCUAAGGAAUUGCUAGGAAUUUCAGAUGAAUGCCAAAAGAUUUCUCCU`, the bound/input enrichment was 0.177 ratio.
The bound/input enrichment of `UGUGAAACCCAGAAAUGGACUGUGAAUGGACAGCUGAGGGUUGGAUUUUUUACCACCAAACUAGUUCCUUCAGGCUCAGAAUUAACUUUUGACUACCAGUUCCAAAGAUAUGGCAAAGAA` is reported as 0.34 ratio.
The bound/input enrichment of `UCUAGGCAUUCAAGAUCUCGUAGCAGGCACAGAUUGUCUAGAUCCAGAAGUCGUCAUUCUAGUAUUUCUCCUAGCACACUAACUCUGAAGAGUAGCCUGGCAGCUGAAUUGAACAAGAAU` is reported as 0.289 ratio.
`CAGGAGCAGGGGCCCUGGCCUCCAUUCCCAUGUGUUGACUCACAACUGUUUGUAAUUCCAGUUCCAGGGUAUCUGACAUCCUCCUCUGGUCUCCUCACGCAUAUGUGUGGUACACAAACA` gave a bound/input enrichment of 0.166 ratio.
`GAGACCAAGAAGUUACCACCAAAUUCAUGUCACAAAUCUGGGCCAAGCAUCUGUGAGAAACCAACUUCUUCACAACAAAAGGUUCCCACAGAGAAGGCAAAACAUAACAAGAGUUCAGUC` gave a bound/input enrichment of 0.0892 ratio.

Sample 3
Target: RNA binding protein fox-1 homolog 2, RRM domain, GST-SBP tag (RBFOX2, Homo sapiens, UniProt O43251-10, residues 100-194)
Technique: RNA Bind-n-Seq
Form: RNA
Sample: in vitro
Concentration: 365 nM
Notes: natural RNA segment, single round, ends assumed
Reference: no-protein control
Direction: higher = stronger binding
Constant ends, left off below: GGGAGUUCUACAGUCCGACGAUC … UGGAAUUCUCGGGUGCCAA
Construct (chain): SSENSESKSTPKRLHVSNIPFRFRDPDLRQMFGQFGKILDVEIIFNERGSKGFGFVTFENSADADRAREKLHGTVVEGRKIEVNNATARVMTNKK
`UCUUUGGGCAGAGAUUCUAUUUUUGACAUUUGCACAAGACAGGUAGGGAAAGGGGACUUGUGGUAGUGGACCAUACCUGGGGACCAAAAGAGACCCACUGUAAUUGAUGC` — result for “RBNS enrichment (R)”: 0.974.
`AUCAAUUGUGCUUUAGGAAAUUAUUGACAGUUUUGCACAGGUUCUUGAAAACGUUAUUUAUAAUGAAAUCAACUAAAACUAUUUUUGCUAUAAGUUCUAUAAGGUGCAUA` — result for “RBNS enrichment (R)”: 0.637.
For `CAUCCGAGUCUUCAGGGUCACGCCCAAGUAACUGAAGGGAGGCUGACUUGGACCCACCAAGGCUUCUGAGCACACACAUCCAUGUGGCCGAGGUUUCUAGUGCUUCAUAG`, “RBNS enrichment (R)” read 0.381.
`UUUCCCUCAAUGCAUGUAAUUAAACACUUGUGGAAAUCGCUUUAACAAUAAACAGGAAAUGAGCCUAGUAUUGUUCAUUUCUUAUUUCCUUUAGAGUUUAUGACUGAGGG` — result for “RBNS enrichment (R)”: 24.6.
`UACAAGGACCCAGCCUGAGAUGGUCCCAUCUGCAGGGCCCCGCACCAGUUGGAGCAGAUGCCUCCCCACCACCAAUUGCCAAAGGUCCAAUAAAAUGCCUCAACCACGGA`: “RBNS enrichment (R)” 0.626.
`UGGCCAUGAUGGUCAGACCAAAGGUCAUCCCAGUCCACGGGAGGUCUCCUGUGGAAGGGUCCCGGAACAUAUGCAUGGCGUCUGCUCGCGGCAGGUGGCAGGUGGUGUUG` — result for “RBNS enrichment (R)”: 0.429.
`CAGUGAAAGUCGUCCUUGUCUCAGAAUGACCAGGGGCCAGCCAGUGUCUGACCAAGGUCAAGGGGCAGGUGCAGAGGUGGCAGGGAUGGCUCCGAAGCCAGAAAUGCCUU`: “RBNS enrichment (R)” 0.282.
For `UGGUCCUUGUGCCCUCCCCACUCAUCCCUGGUCUGGUCCCCUGUUGCCUAUAGCCCUUUACCCUGAGCACCACCCCAACAGACUGGGGACCAGCCCCCUCGCCUGCCUGU`, “RBNS enrichment (R)” read 1.16.

Sample 4
Target: Ras GTPase-activating protein-binding protein 1, RRM domain (G3BP1, Homo sapiens, UniProt Q13283)
UniProt Q13283, sequence (whole entry, looked up): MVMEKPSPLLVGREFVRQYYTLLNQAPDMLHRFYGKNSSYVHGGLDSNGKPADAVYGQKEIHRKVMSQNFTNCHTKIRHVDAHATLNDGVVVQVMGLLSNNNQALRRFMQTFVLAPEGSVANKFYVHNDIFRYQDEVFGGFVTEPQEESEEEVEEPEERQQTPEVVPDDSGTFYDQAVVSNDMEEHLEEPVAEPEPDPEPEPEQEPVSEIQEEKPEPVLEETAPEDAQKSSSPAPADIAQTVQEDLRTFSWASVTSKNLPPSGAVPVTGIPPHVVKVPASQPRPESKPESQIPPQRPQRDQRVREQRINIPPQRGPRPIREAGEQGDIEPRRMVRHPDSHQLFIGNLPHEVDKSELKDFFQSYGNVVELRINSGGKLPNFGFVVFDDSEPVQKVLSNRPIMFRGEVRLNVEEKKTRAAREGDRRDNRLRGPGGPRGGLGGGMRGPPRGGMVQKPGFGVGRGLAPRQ
Technique: RNA Bind-n-Seq
Form: RNA
Sample: in vitro
Concentration: 1 µM
Notes: whole 134-nt RNA, ends assumed
Together with: 150 mM KCl
Reference: input library
Direction: higher = stronger binding
Constant ends, left off below: GGGAGUUCUACAGUCCGACGAUC … UGGAAUUCUCGGGUGUCAAGG
For `AAGUCCUGUGCUACACAUCGUAUGUACCGAAUCGGGGCCCCGGGCCCCGGCCCCGGAAAGUAUUAUGUUACGCCGUUCGGAUCUGCACUU`, the log2 enrichment was -0.542.
For `UGGCUGGCUGUGGCCUCACAGCUGAGGACUGCAAGGACCUUGCCUUUGGGCUGAGAGCCAACCAGACCCUGACCGAGCUGGACCUGAGCU`, the log2 enrichment was -0.676.
The log2 enrichment of `CAAGUCCUGUGCUACACAUCGUAUGUACCGAAUCGGGAAAGGAAAGGGGAAAGGGAAAGUAUUAUGUUACGCCGUUCGGAUCUGCACUUC` is reported as 0.117.
The log2 enrichment of `CACAGACAACACGCACCCACACAGACACAGAGGGAAGGGGUUGGGAUGGGGACAGGGUGCACAGCAGGGCGUGGUAGGACCCCAGCCCCU` is reported as -0.288.
`CUCAAGUCCUGUGCUACACAUCGUAUGUACCGAAUCGGGUUGGGGUUGGUUGGAAAGUAUUAUGUUACGCCGUUCGGAUCUGCACUUCCA` gave a log2 enrichment of -0.268.
`GGCAGGAGGAAGAGCGCAGGCGCCGUGAAGAAGAGAUGCGGCGGCAGCAAGAAGAAAUGAUGCGGCGACAGCAGGAAGGAUUCAAGGGAA` gave a log2 enrichment of -0.226.
With `UUGGGCUGCCCAUCACCGUGGCCCAUGUGGAUGGCCAAACCCACAUGUUAUUUGGCUCUGACCGGAUGGAGCUGCUGGCGCACCUGCUGG` the log2 enrichment was -0.5.
For `CUCAAGUCCUGUGCUACACAUCGUAUGUACCGAAUCGGGGUUGGGUUGGUUGGAAAGUAUUAUGUUACGCCGUUCGGAUCUGCACUUCCA`, the log2 enrichment was -0.267.
`UCCUGUGCUACACAUCGUAUGUACCGAAUCGGAAAAAAGGGAAAAAAGGGGAAAAAAGGGAAAGUAUUAUGUUACGCCGUUCGGAUCUGC` has a log2 enrichment of -0.00365.

For quick reference, copied from above (sample 2):
With `AAAUUUAACUAAUUUCCAUUUGUUAAAAAGUAGUGAUUUAUUGAGAAUUAUGCAGUCAUUUUUUAAACCCAAAAGUUAUUUAAAGGUGAAUUUAUACUCAAUAACUUCUGUGUAAUACUG` the bound/input enrichment was 2.18 ratio.
For `UGCAGUCAUCCAGUCCUUGGGCAAAAUACAGAGAAUGUGUCACAACCAGAAAGAGAAGAUACUCAAGACAACUCUAAGGAAUUGCUAGGAAUUUCAGAUGAAUGCCAAAAGAUUUCUCCU`, the bound/input enrichment was 0.177 ratio.
